{"data": "Results of several laboratories", "note": "Numbered parts are unrelated; each lists some results of a single study. Values joined by “and” are separate records of one study, mostly repeats; a detail may differ.", "sequence of UniProt P37173 (whole entry, looked up)": "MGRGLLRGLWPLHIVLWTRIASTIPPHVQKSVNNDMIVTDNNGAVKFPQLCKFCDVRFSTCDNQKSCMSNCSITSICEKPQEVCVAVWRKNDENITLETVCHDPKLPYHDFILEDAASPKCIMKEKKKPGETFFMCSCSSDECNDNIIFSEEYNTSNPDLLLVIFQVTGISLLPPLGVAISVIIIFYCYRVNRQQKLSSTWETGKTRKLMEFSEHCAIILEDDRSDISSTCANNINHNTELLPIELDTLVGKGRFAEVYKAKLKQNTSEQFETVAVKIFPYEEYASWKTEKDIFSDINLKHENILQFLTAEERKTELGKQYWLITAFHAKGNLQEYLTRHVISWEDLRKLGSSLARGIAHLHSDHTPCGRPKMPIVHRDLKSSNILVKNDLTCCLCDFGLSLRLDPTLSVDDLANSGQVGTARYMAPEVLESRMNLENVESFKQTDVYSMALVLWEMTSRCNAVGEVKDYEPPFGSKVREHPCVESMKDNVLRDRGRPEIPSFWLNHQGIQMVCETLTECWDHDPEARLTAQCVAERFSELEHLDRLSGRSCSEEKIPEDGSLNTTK", "sequence of UniProt P41595 (whole entry, looked up)": "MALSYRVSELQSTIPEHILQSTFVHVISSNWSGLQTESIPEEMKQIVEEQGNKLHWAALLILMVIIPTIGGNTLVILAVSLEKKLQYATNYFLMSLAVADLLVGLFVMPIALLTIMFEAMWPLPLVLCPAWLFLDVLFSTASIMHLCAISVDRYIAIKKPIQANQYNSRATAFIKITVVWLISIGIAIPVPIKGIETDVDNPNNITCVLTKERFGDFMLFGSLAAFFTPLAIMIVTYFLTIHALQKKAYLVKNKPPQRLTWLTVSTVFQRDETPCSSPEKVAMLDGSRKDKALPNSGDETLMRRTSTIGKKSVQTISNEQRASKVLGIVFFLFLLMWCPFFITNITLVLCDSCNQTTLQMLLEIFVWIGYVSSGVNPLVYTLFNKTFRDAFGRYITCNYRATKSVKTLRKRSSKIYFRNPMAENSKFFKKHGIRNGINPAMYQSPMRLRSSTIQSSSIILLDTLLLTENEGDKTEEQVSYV", "sequence of UniProt P28221 (whole entry, looked up)": "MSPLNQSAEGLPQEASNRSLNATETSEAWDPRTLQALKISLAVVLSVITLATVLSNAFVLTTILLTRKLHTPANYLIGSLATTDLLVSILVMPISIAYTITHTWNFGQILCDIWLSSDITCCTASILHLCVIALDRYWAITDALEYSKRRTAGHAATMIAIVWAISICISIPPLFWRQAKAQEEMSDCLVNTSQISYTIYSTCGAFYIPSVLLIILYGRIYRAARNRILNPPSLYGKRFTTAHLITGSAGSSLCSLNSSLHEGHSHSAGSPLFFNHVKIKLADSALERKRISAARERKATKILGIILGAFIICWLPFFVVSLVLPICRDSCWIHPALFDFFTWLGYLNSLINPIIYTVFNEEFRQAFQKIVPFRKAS", "sequence of UniProt P28566 (whole entry, looked up)": "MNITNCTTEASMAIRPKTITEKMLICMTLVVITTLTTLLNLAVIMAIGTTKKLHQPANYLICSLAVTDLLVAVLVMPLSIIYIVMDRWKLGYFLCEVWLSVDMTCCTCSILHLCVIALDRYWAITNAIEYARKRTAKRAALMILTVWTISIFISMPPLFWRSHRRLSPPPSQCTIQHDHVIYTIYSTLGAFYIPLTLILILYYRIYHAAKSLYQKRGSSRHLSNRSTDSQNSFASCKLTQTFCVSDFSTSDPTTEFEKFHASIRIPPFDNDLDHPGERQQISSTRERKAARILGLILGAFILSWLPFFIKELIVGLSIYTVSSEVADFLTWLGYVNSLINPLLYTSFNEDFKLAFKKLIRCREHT"}
{"data": "Sample 1", "Structure (SMILES)": "CC(C)(C(=O)O)[C@H](NC(=O)Cc1cccc(I)c1)c1ccc2oc(=O)[nH]c2c1", "technique": "Incucyte 3D growth", "tested at": "30 µM", "reading": "higher = more growth"}
{"cell line": "A375", "time": "294.52 h", "spheroid area": "1.99e+08 a.u. and 1.81e+08 a.u. and 2.03e+08 a.u. and 1.74e+08 a.u. and 1.76e+08 a.u. and 1.75e+08 a.u."}
{"cell line": "IPC-298", "time": "300 h", "spheroid area": "4.2e+07 a.u. and 3.19e+07 a.u. and 3.51e+07 a.u. and 3.95e+07 a.u. and 3.97e+07 a.u. and 2.6e+07 a.u."}
{"cell line": "IPC-298", "time": "84 h", "spheroid area": "2.97e+07 a.u. and 2.8e+07 a.u. and 2.61e+07 a.u. and 3.37e+07 a.u. and 2.39e+07 a.u. and 2.63e+07 a.u."}
{"cell line": "A375", "time": "180 h", "spheroid area": "1.12e+08 a.u. and 9.4e+07 a.u. and 1.07e+08 a.u. and 1.28e+08 a.u. and 1.1e+08 a.u. and 1.08e+08 a.u."}
{"cell line": "NCI-H1437", "time": "138 h", "spheroid area": "3.28e+07 a.u. and 2.9e+07 a.u. and 3.32e+07 a.u. and 4.05e+07 a.u. and 3.23e+07 a.u. and 3.57e+07 a.u."}
{"data": "Sample 2", "SMILES": "CC(=O)Nc1c(F)cc(C(=O)N[C@H]2CC[C@H](O)CC2)cc1O[C@@H](C)c1ccccc1", "effect on": "binding", "technique": "radioligand binding", "tested at": "10 µM"}
{"target": "5-hydroxytryptamine receptor 2B (HTR2B, Homo sapiens, UniProt P41595)", "inhibition": "-6.98%"}
{"target": "5-hydroxytryptamine receptor 1D (HTR1D, Homo sapiens, UniProt P28221)", "inhibition": "84.2%"}
{"target": "5-hydroxytryptamine receptor 1E (HTR1E, Homo sapiens, UniProt P28566)", "inhibition": "-15.4%"}
{"data": "Mixed results"}
{"Compound": "CCC[C@@H]1NC(=O)CSC[C@@H](C(=O)OCC)N(C)C(=O)[C@H](CC(C)C)NC(=O)[C@H](C)N(C)C(=O)[C@@H](CC(C)C)NC(=O)[C@H](C)N(C)C(=O)[C@H]2CCCN2C(=O)[C@H](CC(C)C)NC(=O)CN(CCC)C1=O", "medium": "hydrocarbon/water", "endpoint": "logD", "result": 0.862}
{"Compound": "C[S+]([O-])c1ccc(-c2nc(-c3ccncc3)c(-c3ccc(F)cc3)[nH]2)cc1 (stereo not shown)", "target or system": "TGF-beta receptor type-2 (TGFBR2, Homo sapiens, UniProt P37173)", "effect on": "cell-free assay", "tested at": "0.5 µM", "endpoint": "remaining signal", "result": "144%"}
{"note": "Repeated from above (mixed results):"}
{"Compound": "C[S+]([O-])c1ccc(-c2nc(-c3ccncc3)c(-c3ccc(F)cc3)[nH]2)cc1 (stereo not shown)", "target or system": "TGF-beta receptor type-2 (TGFBR2, Homo sapiens, UniProt P37173)", "effect on": "cell-free assay", "tested at": "0.5 µM", "endpoint": "remaining signal", "result": "144%"}
